Published values from different studies.
± gives the spread as reported.

Structure (SMILES) | assay | test system | conditions | endpoint | result
O=C/C=C/c1ccccc1 | phase II metabolic stability | human liver S9 fraction | 10 µM, pH 7.4, with: UDPGA | intrinsic clearance (scaled) | 358 ± 14 mL/min/kg
COc1ccc(S(=O)(=O)N2CCCCC2)cc1C | – | mouse liver microsomes | – | intrinsic clearance | 39 mL/min
CC(C)(C)[C@H](NC(=O)C(F)(F)F)C(=O)N1C[C@H]2[C@@H]([C@H]1C(=O)N[C@H](C#N)C[C@@H]1CCNC1=O)C2(C)C | – | human liver microsomes | microsomes 0.5 mg/mL | intrinsic clearance | 34.5 µL/min/mg
C[C@]12CC[C@H]3[C@@H](CC=C4CC(O)CC[C@@]43CO)[C@@H]1CCC2O (stereo partly drawn) | – | rat liver microsomes | – | intrinsic clearance | 69.8 µL/min/mg protein
C[C@]12CC[C@H]3[C@@H](CCC4=CC(=O)CC[C@@]43C)[C@@H]1CC[C@@H]2O | – | mouse liver microsomes | microsomes 0.5 mg/mL | intrinsic clearance | 393 µL/min/mg
C[C@H]1COCCN1c1nc(NCc2cccnc2C(F)(F)F)c2cccnc2n1 | – | human hepatocytes | donor | intrinsic clearance | < 1 µL/min/10⁶ cells
CC(C)C[C@H](NC(=O)[C@H](Cc1ccccc1)NC(=O)[C@H](Cc1ccccc1)NC(=O)Cc1ccc(-c2ccccc2)cc1)C(=O)N[C@@H](CCCCN)C(=O)N[C@@H](CCCNC(=N)N)C(=O)N[C@H](C(=O)N[C@@H](Cc1c[nH]c2ccccc12)C(=O)N[C@@H](CCCCN)C(=O)N[C@@H](CCCNC(=N)N)C(=O)O)C(C)C | – | human liver microsomes | – | intrinsic clearance | 70.3 mL/min/kg
CCNc1nc(N2CC(=O)Nc3cc(OC)ccc32)c2ncccc2n1 | – | mouse liver microsomes | 1 µg/mL, 1 mg protein/mL, with: NADPH | intrinsic clearance | 373 µL/min/mg
CCCCCCCCCN(C)C | RT-S9 substrate depletion | rainbow trout | non-shaken incubation | intrinsic clearance in vivo | 166 mL/h/g liver

For quick reference, copied from above:
Structure (SMILES) | assay | test system | conditions | endpoint | result
CCCCCCCCCN(C)C | RT-S9 substrate depletion | rainbow trout | non-shaken incubation | intrinsic clearance in vivo | 166 mL/h/g liver
